Measurements gathered from unrelated publications.
Numbers after ± are the reported error. ≈ marks a conversion by molar mass, not a printed value.
Organism: Candida albicans

SMILES	assay	system	conditions	how to read	endpoint	value
CC(C)C[C@H](NC(=O)[C@H](CCCNC(=N)N)NC(=O)[C@H](Cc1c[nH]c2ccccc12)NC(=O)[C@H](CCCNC(=N)N)NC(=O)[C@H](Cc1c[nH]c2ccccc12)NC(=O)[C@H](Cc1c[nH]c2ccccc12)NC(=O)[C@H](Cc1c[nH]c2ccccc12)NC(=O)[C@H](CCCNC(=N)N)NC(=O)[C@H](Cc1c[nH]c2ccccc12)NC(=O)[C@@H](N)CCCNC(=N)N)C(N)=O	broth microdilution	alveolar fluid isolate, RPMI 1640-MOPS	48 h, 30 °C		MIC	16 µM (≈ 27 µg/mL)
CC[C@H](C)[C@H](NC(=O)CN)C(=O)NCC(=O)N[C@@H](C)C(=O)N[C@H](C(=O)N[C@@H](CC(C)C)C(=O)N[C@@H](CCCCN)C(=O)N[C@H](C(=O)N[C@@H](CC(C)C)C(=O)N[C@H](C(=O)N[C@H](C(=O)NCC(=O)N[C@@H](CC(C)C)C(=O)N1CCC[C@H]1C(=O)N[C@@H](C)C(=O)N[C@@H](CC(C)C)C(=O)N[C@H](C(=O)N[C@@H](CO)C(=O)N[C@@H](Cc1c[nH]c2ccccc12)C(=O)N[C@H](C(=O)N[C@@H](CCCCN)C(=O)N[C@@H](CCCNC(=N)N)C(=O)N[C@@H](CCCCN)C(=O)N[C@@H](CCCNC(=N)N)C(=O)N[C@@H](CCC(N)=O)C(=O)N[C@@H](CCC(N)=O)C(N)=O)[C@@H](C)CC)[C@@H](C)CC)[C@@H](C)O)[C@@H](C)O)C(C)C)C(C)C	broth microdilution	CGMCC 2.209, RPMI-1640	48 h, 30 °C		MIC	4 µM (≈ 11.4 µg/mL)
CO[C@H]1[C@H](O[C@H]([C@H]2O[C@@H](n3ccc(=O)[nH]c3=O)[C@H](O)[C@@H]2O)[C@H](NCCCNC(=O)[C@@H](NC(=O)[C@@H](NC(=O)N[C@H](C(=O)O)C(C)C)[C@@H]2CCN=C(N)N2)[C@@H](OC(=O)CCCCCCCCCCCCN(O)C(=N)N)C(C)C)C(=O)O)O[C@H](CN)[C@H]1O	alamar blue	18 M			MIC50	> 35 µg/mL
C#Cc1ccc(C=NNC(=O)c2ccc(COC)cc2)c(O)c1		A39	unit not given, together with: caspofungin	lower = more synergy	FICI	1
C[C@@H]1C[C@@H]([C@H](O)CC2CC(=O)NC(=O)C2)C(=O)[C@@H](C)C1		ATCC 10231	concentration not given		inhibition zone diameter	14 ± 0.26 mm
C[C@H](NC(=O)[C@H](CCCNC(=N)N)NC(=O)[C@H](Cc1c[nH]c2ccccc12)NC(=O)[C@H](CCCNC(=N)N)NC(=O)[C@H](Cc1c[nH]c2ccccc12)NC(=O)[C@H](Cc1c[nH]c2ccccc12)NC(=O)[C@H](Cc1c[nH]c2ccccc12)NC(=O)[C@H](CCCNC(=N)N)NC(=O)[C@H](Cc1c[nH]c2ccccc12)NC(=O)[C@H](CCCNC(=N)N)NC(=O)CN)C(N)=O	broth microdilution	CGMCC 2.209, RPMI 1640-MOPS	48 h, 30 °C, together with: MgCl2 1 mM		MIC	8 µM (≈ 13.6 µg/mL)
C#Cc1cccc(C=NNC(=O)c2ccc(Br)c(Br)c2)c1O		A39	unit not given, together with: caspofungin	lower = more synergy	FICI	0.5
CC[C@@H](C)[C@H]1O[C@@H](c2c(O)c(-c3ccccc3)cn(OC)c2=O)[C@H](C)C[C@@H]1C	cell growth	ATCC 90028			IC50	> 20 µg/mL
N=C(N)NCCC[C@H](NC(=O)[C@H](Cc1c[nH]c2ccccc12)NC(=O)[C@H](CCCNC(=N)N)NC(=O)[C@H](Cc1c[nH]c2ccccc12)NC(=O)[C@H](Cc1c[nH]c2ccccc12)NC(=O)[C@H](Cc1c[nH]c2ccccc12)NC(=O)[C@H](CCCNC(=N)N)NC(=O)[C@H](Cc1c[nH]c2ccccc12)NC(=O)[C@@H](N)CCCNC(=N)N)C(N)=O	broth microdilution	14936, RPMI 1640-MOPS	48 h, 30 °C		MIC	8 µM (≈ 12.6 µg/mL)
C#Cc1ccc(C=NNC(=O)c2ccc(Br)cc2Br)c(O)c1		A39	unit not given, together with: caspofungin	lower = more synergy	FICI	0.56
OC(Cn1cncn1)(Cn1cncn1)c1ccc(F)cc1F		2.209	over 30 generations serial passaging	baseline: initial MIC	MIC increase	128 fold
OC(Cn1cncn1)(Cn1cncn1)c1ccc(F)cc1F		Gu5 and G5, BALB/c mice, candidiasis	intraperitoneal, 5 mg/kg, together with: CM-1 20 mg/kg	baseline: vehicle	survival	no effect
CC[C@H](C)[C@H](NC(=O)CN)C(=O)NCC(=O)N[C@@H](C)C(=O)N[C@H](C(=O)N[C@@H](CC(C)C)C(=O)N[C@@H](CCCCN)C(=O)N[C@H](C(=O)N[C@@H](CC(C)C)C(=O)N[C@H](C(=O)N[C@H](C(=O)NCC(=O)N[C@@H](CC(C)C)C(=O)N1CCC[C@H]1C(=O)N[C@@H](C)C(=O)N[C@@H](CC(C)C)C(=O)N[C@H](C(=O)N[C@@H](CO)C(=O)N[C@@H](Cc1c[nH]c2ccccc12)C(=O)N[C@H](C(=O)N[C@@H](CCCCN)C(=O)N[C@@H](CCCNC(=N)N)C(=O)N[C@@H](CCCCN)C(=O)N[C@@H](CCCNC(=N)N)C(=O)N[C@@H](CCC(N)=O)C(=O)N[C@@H](CCC(N)=O)C(N)=O)[C@@H](C)CC)[C@@H](C)CC)[C@@H](C)O)[C@@H](C)O)C(C)C)C(C)C	broth microdilution	14936, RPMI 1640-MOPS	48 h, 30 °C		MIC	2 µM (≈ 5.69 µg/mL)
C#Cc1ccc(O)c(C=NNC(=O)c2ccc(Br)c(Br)c2)c1		A39	unit not given, together with: caspofungin	lower = more synergy	FICI	2
